Assay results gathered from unrelated publications.
Each numbered part is a random draw from the data of one study; scales do not carry over between parts.

Block 1 — method: protein binding microarray; molecule type: double-stranded DNA, one strand shown; sample: in vitro; tested at: not given; baseline: not given; direction: higher = stronger binding
Target: Histone acetyltransferase KAT6A, winged helix 1, GST fusion (KAT6A, Homo sapiens, UniProt Q92794, residues 1-85)
Setting: 8-mer, flanks averaged, mean of 2 arrays, mostly near background
Construct (chain): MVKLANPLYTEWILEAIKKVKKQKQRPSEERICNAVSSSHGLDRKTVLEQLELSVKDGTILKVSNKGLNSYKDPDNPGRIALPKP
With `TCTAGCCA` the E-score was -0.0998.
For `AATGCATG`, the E-score was -0.188.
`CTTCCTGC` has an E-score of -0.154.

Block 2 — method: protein-binding microarray; molecule type: double-stranded DNA, one strand shown; sample: in vitro; tested at: 2200 nM top; setting: 60-bp whole probe; added: salmon DNA 0.4 mg/ml; baseline: random background probes; direction: higher = stronger binding
Target: Interferon regulatory factor 7, full length, phosphomimetic (IRF7, Homo sapiens, UniProt Q92985, residues 1-503, S471D/S472D/S475D/S476D/S477D/S483D/S484D/S487D)
Construct (chain): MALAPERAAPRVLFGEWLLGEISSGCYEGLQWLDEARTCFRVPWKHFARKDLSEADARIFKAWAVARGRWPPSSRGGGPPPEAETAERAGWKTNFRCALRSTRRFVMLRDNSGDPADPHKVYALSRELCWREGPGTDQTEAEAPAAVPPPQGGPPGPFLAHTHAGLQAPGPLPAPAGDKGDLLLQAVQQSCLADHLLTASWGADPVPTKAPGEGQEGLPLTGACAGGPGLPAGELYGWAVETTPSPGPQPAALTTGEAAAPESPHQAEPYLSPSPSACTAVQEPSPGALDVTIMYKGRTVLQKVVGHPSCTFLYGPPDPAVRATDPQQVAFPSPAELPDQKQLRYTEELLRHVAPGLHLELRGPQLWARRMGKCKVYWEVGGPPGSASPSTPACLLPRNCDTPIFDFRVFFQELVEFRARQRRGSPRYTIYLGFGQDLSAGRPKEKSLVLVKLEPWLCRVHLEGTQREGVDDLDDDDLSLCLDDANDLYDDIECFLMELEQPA
Under “fitted relative affinity”, `GCCTAGCACTCACCACTCTTTCCTCACACTGTGCTAGTCTTGATTCGCTTGACGCTGCTG` is recorded as 2.11 z-score.
Under “fitted relative affinity”, `GCCTAGCACTCATTTGACTCTTTCTGACTGTGCTAGGTCTTGATTCGCTTGACGCTGCTG` is recorded as 1.75 z-score.
Under “fitted relative affinity”, `GCCTAGCACGTCGGTTTCCTTATCCTGACGTGCTAGGTCTTGATTCGCTTGACGCTGCTG` is recorded as 3.89 z-score.
Under “fitted relative affinity”, `GCCTAGCACCTGCATTACAGCTATTTTTAGGTGCTAGTCTTGATTCGCTTGACGCTGCTG` is recorded as 0.721 z-score.

Block 3 — method: competition protein-binding microarray; molecule type: double-stranded DNA, one strand shown; sample: in vitro; tested at: 2 µM; added: Cbf1 competitor, 0.05 µM; direction: higher = stronger binding
Target: Phosphate system positive regulatory protein PHO4, full length, GST-tagged (PHO4, Saccharomyces cerevisiae, UniProt P07270, residues 1-312)
Setting: whole 60-bp probe, lowest competitor level
Residues (chain): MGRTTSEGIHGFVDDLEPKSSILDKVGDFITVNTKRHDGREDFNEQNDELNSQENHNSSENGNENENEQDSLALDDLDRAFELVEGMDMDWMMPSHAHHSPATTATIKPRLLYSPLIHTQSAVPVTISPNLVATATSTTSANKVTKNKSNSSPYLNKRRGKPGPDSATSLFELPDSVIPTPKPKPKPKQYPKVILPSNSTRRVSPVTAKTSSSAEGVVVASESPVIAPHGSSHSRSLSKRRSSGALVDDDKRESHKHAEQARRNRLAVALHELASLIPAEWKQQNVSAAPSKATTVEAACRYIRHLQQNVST
`CGTATGGTCTGCGACCTTGGGACATACAGTAAGTAGGTCTTGATTCGCTTGACGCTGCTG` has a fluorescence intensity of 4710 a.u.
`AAAGCGGTAATTTGTCACCATACTTCACATATCTATGTCTTGATTCGCTTGACGCTGCTG` has a fluorescence intensity of 3860 a.u.
`GTGCGGCCATTGCTGAAAATCGCAAAACCCACAGAGGTCTTGATTCGCTTGACGCTGCTG` has a fluorescence intensity of 4720 a.u.

Other studies, line by line
For `PhoQ, residues 284 288 289 292 302 303 STVVAA`, the fold induction was 0.857 (PhoP, residues 12 14 15 18 19 STHWV (Escherichia coli, UniProt P23836); Sort-seq, measured: YFP reporter; E. coli; PhoQ-PhoP variant library, added: 10 µM Mg2+; baseline: high Mg2+ state, higher = stronger signaling).

Repeated from above (block 2):
Under “fitted relative affinity”, `GCCTAGCACGTCGGTTTCCTTATCCTGACGTGCTAGGTCTTGATTCGCTTGACGCTGCTG` is recorded as 3.89 z-score.
